Values quoted from earlier work, collected from citations in different studies.
Each line is one published result; not all experiments were run side by side. ≈ marks a conversion by molar mass, not a printed value.
Sequence of UniProt Q9NQU5 (whole entry, looked up): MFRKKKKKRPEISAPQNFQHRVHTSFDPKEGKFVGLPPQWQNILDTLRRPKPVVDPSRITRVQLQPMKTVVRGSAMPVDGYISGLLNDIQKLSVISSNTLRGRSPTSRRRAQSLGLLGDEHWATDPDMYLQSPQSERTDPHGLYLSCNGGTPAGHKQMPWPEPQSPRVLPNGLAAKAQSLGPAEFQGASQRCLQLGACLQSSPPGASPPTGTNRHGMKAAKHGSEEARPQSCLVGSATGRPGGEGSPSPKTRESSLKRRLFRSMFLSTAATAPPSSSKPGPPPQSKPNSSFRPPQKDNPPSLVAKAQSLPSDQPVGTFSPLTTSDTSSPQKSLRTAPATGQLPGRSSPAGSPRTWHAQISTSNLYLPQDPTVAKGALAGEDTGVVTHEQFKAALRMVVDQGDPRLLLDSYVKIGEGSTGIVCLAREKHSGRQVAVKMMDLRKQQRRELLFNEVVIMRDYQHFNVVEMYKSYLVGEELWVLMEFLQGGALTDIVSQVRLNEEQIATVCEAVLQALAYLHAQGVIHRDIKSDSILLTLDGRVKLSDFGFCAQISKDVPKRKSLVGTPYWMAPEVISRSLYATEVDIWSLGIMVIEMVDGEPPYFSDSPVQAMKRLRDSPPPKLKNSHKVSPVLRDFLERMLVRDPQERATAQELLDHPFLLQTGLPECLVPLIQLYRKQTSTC

Structure (SMILES) | target or system | assay | system | conditions | scale | quantity | result
O=S(=O)(O)C(F)(F)F | CYP3A4 | inhibitor |  | Tox21 screening |  | IC50 | inactive
Cc1cccc(-c2[nH]c(CNc3ccccc3F)nc2-c2ccc3ncnn3c2)n1 | MRP1 | transport activity, inhibitor |  |  |  | IC50 | > 100000 nM
COC[C@H]1C[C@@H](c2ncc(-c3ccc4c(c3)COc3cc5c(ccc6nc([C@@H]7CC[C@H](C)N7C(=O)[C@@H](NC(=O)OC)C(C)C)[nH]c65)cc3-4)[nH]2)N(C(=O)[C@H](NC(=O)OC)c2ccccc2)C1 | OATP1B3 (SLCO1B3) | inhibitor |  | literature value used in model |  | IC50 | 235 nM
C=C[C@@H]1C[C@]1(NC(=O)[C@@H]1C[C@@H]2CN1C(=O)[C@H](C(C)(C)C)NC(=O)O[C@@H]1C[C@H]1CCCCCc1nc3ccc(OC)cc3nc1O2)C(=O)NS(=O)(=O)C1CC1 | P-glycoprotein | transport, inhibitor |  | with: digoxin |  | IC50 | > 100000 nM
N[C@@H]1c2cccnc2[C@H](OC(=O)N2CCC(n3c(=O)[nH]c4ncccc43)CC2)CC[C@H]1c1cccc(F)c1F | CYP2C9 (human) |  | human liver microsomes |  |  | IC50 | > 40000 nM
C=C(C)[C@@H]1CC[C@]2(C)CC[C@]3(C)[C@H](CC[C@@H]4[C@@]5(C)CC[C@H](O)C(C)(C)[C@@H]5CC[C@]43C)[C@@H]12 | CYP3A2 (rat) | inhibitor | rat liver microsomes |  |  | IC50 | > 100000 nM
Nc1cc(C(F)(F)F)c(-c2nc(N3CCOCC3)nc(N3CCOCC3)n2)cn1 | PAK6 (Homo sapiens, UniProt Q9NQU5) | enzyme activity |  | 10 µM | reference: untreated | remaining activity | 83%
CCCS(=O)(=O)Nc1ccc(F)c(C(=O)c2c[nH]c3ncc(-c4ccc(Cl)cc4)cc23)c1F | ABCG2 |  | MCF7-FLV1000 |  |  | IC50 | 1240 nM
FC1(F)C(F)(F)C(F)(F)C2(F)C(F)(F)C(F)(F)C(F)(F)C(F)(F)C2(F)C1(F)F (stereo not shown) | CYP1A2 | inhibitor |  | Tox21 screening |  | IC50 | inactive
C[C@H]1CN(C2COC2)CCN1c1ccc(Nc2cc(-c3ccnc(N4CCn5c(cc6c5CC(C)(C)C6)C4=O)c3CO)cn(C)c2=O)nc1 | human BCRP (ABCG2) |  |  | literature geometric mean |  | IC50 | 9400 nM
CN(C)C/C=C/C(=O)Nc1cc2c(Nc3ccc(F)c(Cl)c3)ncnc2cc1O[C@H]1CCOC1 | ABCG2 |  | HEK293-ABCG2 |  |  | IC50 | 500 nM
CCC(C)n1ncn(-c2ccc(N3CCN(c4ccc(OCC5COC(Cn6cncn6)(c6ccc(Cl)cc6Cl)O5)cc4)CC3)cc2)c1=O (stereo not shown) | BCRP (ABCG2) | inhibitor |  | literature minimum |  | IC50 | 1900 nM
FC(F)(F)C(F)(F)C(F)(F)C(F)(F)C(F)(F)C(F)(F)C(F)(F)C(F)(F)Br | CYP2D6 | inhibitor |  | Tox21 screening |  | IC50 | inactive
CO[C@H]1/C=C/O[C@@]2(C)Oc3c(C)c(O)c4c(O)c(c(/C=N/N5CCN(C)CC5)c(O)c4c3C2=O)NC(=O)/C(C)=C\C=C\[C@H](C)[C@H](O)[C@@H](C)[C@@H](O)[C@@H](C)[C@H](OC(C)=O)[C@@H]1C | OATP1B1 and OATP1B3 | transport, inhibitor |  |  |  | IC50 | 1500 to 2600 nM
C[C@H]1COCCN1c1nc(-c2cnc(N)cc2C(F)F)nc(N2CCOCC2)n1 | BT-549 |  |  |  |  | GI50 | 329 nM
COc1cc(Nc2ncc(F)c(Nc3ccc4c(n3)NC(=O)C(C)(C)O4)n2)cc(OC)c1OC | BCRP (ABCG2) | inhibitor |  | literature minimum |  | IC50 | 31 nM
CNCc1cn(S(=O)(=O)c2cccc(F)c2)c(-c2ccc(F)cc2F)c1OC | P-glycoprotein | efflux transport |  |  |  | IC50 | > 100000 nM
CNC(=O)c1c(C)oc2cc(Oc3ncnc4cc(OC)c(OC)cc34)ccc12 | BCRP | transport, inhibitor |  | in vitro |  | IC50 | 1290 nM
COC(=O)N1CCN(Cc2cccc(NC(=O)Nc3ccc(C)nc3)c2F)CC1 | BCRP | inhibitor |  |  |  | IC50 | 2900 nM
CC1(C)S[C@@H]2[C@H](NC(=O)[C@H](N)c3ccccc3)C(=O)N2[C@H]1C(=O)O | Escherichia coli |  | clinical isolate RKI-No_593/16 |  |  | MIC | > 16 mg/L
FC(F)OC(Cl)C(F)(F)F (stereo not shown) | CYP2D6 | inhibitor |  | Tox21 screening |  | IC50 | inactive
C[C@@H]1O[C@@H](Oc2c(-c3ccc(O)c(O)c3)oc3cc(O)cc(O)c3c2=O)[C@H](O)[C@H](O)[C@H]1O | CYP2C |  |  |  |  | IC50 | > 100000 nM
COC(=O)N[C@H](C(=O)N1CCC[C@H]1c1nc(-c2ccc3c(c2)O[C@@H](c2ccccc2)n2c-3cc3cc(-c4c[nH]c([C@@H]5CCCN5C(=O)[C@@H](NC(=O)OC)C(C)C)n4)ccc32)c[nH]1)C(C)C | human BCRP (ABCG2) |  |  | literature geometric mean |  | IC50 | 150 nM
COc1cc2c(c(OC)c1OC)-c1c(cc3c(c1OC)OCO3)CC(C)C(C)C2 (stereo not shown) | CYP3A, rat | enzyme activity, inhibitor | rat liver microsomes |  |  | IC50 | 5500 nM
C=C[C@@H]1C[C@]1(NC(=O)[C@@H]1C[C@@H]2CN1C(=O)[C@H](C(C)(C)C)NC(=O)O[C@@H]1C[C@H]1CCCCCc1nc3ccc(OC)cc3nc1O2)C(=O)NS(=O)(=O)C1CC1 | human BCRP (ABCG2) |  |  | literature geometric mean |  | IC50 | 12500 nM
CO/N=C(\C(=O)N[C@@H]1C(=O)N2C(C(=O)O)=C(CSc3nc(=O)c(=O)[nH]n3C)CS[C@H]12)c1csc(N)n1 | MRP2 | transport activity, inhibitor |  |  |  | IC50 | 110000 nM
CC(O)c1cc(C(=O)N[C@@H](C)Cn2ccc(-c3ccc(C#N)c(Cl)c3)n2)[nH]n1 (stereo partly shown) | BCRP (ABCG2) | inhibitor |  | literature minimum |  | IC50 | 1300 nM
CNC(C)C1CCC(N)C(OC2C(N)CC(N)C(OC3OCC(C)(O)C(NC)C3O)C2O)O1 (stereo not shown) | Escherichia coli |  | clinical isolate RKI-No_513/16 |  |  | MIC | 2 mg/L (≈ 4.19 µM)
